Experimental data collected from several papers.
Compare with care: the assays were run in different laboratories. In brackets after ≈: the same amount, converted by molar mass.
Organism: Aspergillus fumigatus

N=C(N)NCCC[C@@H]1NC(=O)[C@H](CCCNC(=N)N)NC(=O)[C@H](CCCNC(=N)N)NC(=O)[C@H](Cc2ccc3ccccc3c2)NC(=O)[C@H](Cc2c[nH]c3ccccc23)NC(=O)[C@H](Cc2ccc3ccccc3c2)NC(=O)[C@H](CCCNC(=N)N)NC1=O — biofilm mass reduction (XTT; Af-293; 2 × MIC): 49 to 56%
CCCCCCCCCCCCCCCCC1CC(=O)NCCCN(C)CCCCN(C)CCCN1C (stereo not drawn) — IC50 (microbial growth; ATCC90906): 7.5 µg/mL
CC[C@H](C)[C@H](NC(=O)[C@H](CCCCN)NC(=O)[C@H](CCCNC(=N)N)NC(=O)[C@H](CC(C)C)NC(=O)[C@H](Cc1ccccc1)NC(=O)[C@H](CCCNC(=N)N)NC(=O)CNC(=O)[C@H](Cc1ccccc1)NC(=O)[C@@H](N)CCCNC(=N)N)C(=O)N[C@@H](CCCNC(=N)N)C(=O)N[C@@H](CCCNC(=N)N)C(=O)N[C@@H](Cc1ccccc1)C(=O)N[C@@H](CCCNC(=N)N)C(=O)N1CCC[C@H]1C(=O)N[C@@H](CCCCN)C(=O)N[C@H](C(=O)N[C@H](C(=O)N[C@H](C(=O)N[C@H](C(=O)N[C@H](C(=O)N[C@@H](CCC(N)=O)C(=O)NCC(=O)N[C@@H](CO)C(=O)N[C@@H](C)C(=O)N[C@@H](CCCNC(=N)N)C(=O)N[C@@H](Cc1ccccc1)C(N)=O)[C@@H](C)CC)[C@@H](C)O)[C@@H](C)CC)[C@@H](C)O)C(C)C — MIC (metabolic activity, resazurin; azole-resistant; 27 h, 37 °C): 5 µM
C[C@@H](c1ccn(Cc2ccc(Cl)cc2Cl)n1)[C@](O)(Cn1cnnn1)c1ccc(F)cc1F — MIC (growth, broth microdilution; 7544; 48 h, 35 °C, ≥50% inhibition): 64 µg/mL
CCCCCCCCCC1CC2CCCC3CC(CCCCCCCCC)NC(=N1)N23 (stereo not drawn) — IC50 (microbial growth; ATCC204305): 10.1 µM
CCCCCn1ccc([C@H](C)[C@](O)(Cn2cnnn2)c2ccc(F)cc2F)n1 — MIC (growth, broth microdilution; 7544; 48 h, 35 °C, ≥50% inhibition): > 64 µg/mL
CCCCCCCCCC1CC2CCC3CC(CCCCCCCCC)NC(=N1)N23 (stereo not drawn) — MFC (fungal growth; ATCC 204305): 12 µM (≈ 5.01 µg/mL)
CCCCn1ccc([C@H](C)[C@](O)(Cn2cnnn2)c2ccc(F)cc2F)n1 — MIC (growth, broth microdilution; 7544; 48 h, 35 °C, ≥50% inhibition): > 64 µg/mL
CCCCCC1CC2CCCC3CC(C)N=C(N1)N32 (stereo not drawn) — IC50 (microbial growth; ATCC204305): 34.2 µM

Excerpt of the above:
CCCCn1ccc([C@H](C)[C@](O)(Cn2cnnn2)c2ccc(F)cc2F)n1 — MIC (growth, broth microdilution; 7544; 48 h, 35 °C, ≥50% inhibition): > 64 µg/mL
